Assay results collected from several papers.
Each line is one published result; not all experiments were run side by side.
Method: steady-state kinetics
B1: UGT3A2 A344T (Homo sapiens, UniProt Q3SY77); chain AKILTISTVGGSHYLLMDRVSQILQDHGHNVTMLNHKRGPFMPDFKKEEKSYQVISWLAPEDHQREFKKSFDFFLEETLGGRGKFENLLNVLEYLALQCSHFLNRKDIMDSLKNENFDMVIVETFDYCPFLIAEKLGKPFVAILSTSFGSLEFGLPIPLSYVPVFRSLLTDHMDFWGRVKNFLMFFSFCRRQQHMQSTFDNTIKEHFTEGSRPVLSHLLLKAELWFINSDFAFDFARPLLPNTVYVGGLMEKPIKPVPQDLENFIAKFGDSGFVLVTLGSMVNTCQNPEIFKEMNNAFAHLPQGVIWKCQCSHWPKDVHLATNVKIVDWLPQSDLLAHPSIRLFVTHGGQNSIMEAIQHGVPMVGIPLFGDQPENMVRVEAKKFGVSIQLKKLKAETLALKMKQIMEDKRYKSAAVAASVILRSHPLSPTQRLVGWIDHVLQTGGATHLKPYVFQQPWHEQYLLDVFVFLLGLTLGTLWLCGKLLGMAVWWLRGARKVKET
B2: enzyme S146C (Schizosaccharomyces pombe, UniProt Q9Y7P0); chain MFTGLVEAIGVVKDVQGTIDNGFAMKIEAPQILDDCHTGDSIAVNGTCLTVTDFDRYHFTVGIAPESLRLTNLGQCKAGDPVNLERAVLSSTRMGGHFVQGHVDTVAEIVEKKQDGEAIDFTFRPRDPFVLKYIVYKGYIALDGTCLTITHVDDSTFSIMMISYTQSKVIMAKKNVGDLVNVEVDQIGKYTEKLVEAHIADWIKKTQA
B3: FMO3 E308G (Homo sapiens, UniProt P31513); chain GKKVAIIGAGVSGLASIRSCLEEGLEPTCFEKSNDIGGLWKFSDHAEEGRASIYKSVFSNSSKEMMCFPDFPFPDDFPNFMHNSKIQEYIIAFAKEKNLLKYIQFKTFVSSVNKHPDFATTGQWDVTTERDGKKESAVFDAVMVCSGHHVYPNLPKESFPGLNHFKGKCFHSRDYKEPGVFNGKRVLVVGLGNSGCDIATELSRTAEQVMISSRSGSWVMSRVWDNGYPWDMLLVTRFGTFLKNNLPTAISDWLYVKQMNARFKHENYGLMPLNGVLRKEPVFNDELPASILCGIVSVKPNVKEFTGTSAIFEDGTIFEGIDCVIFATGYSFAYPFLDESIIKSRNNEIILFKGVFPPLLEKSTIAVIGFVQSLGAAIPTVDLQSRWAAQVIKGTCTLPSMEDMMNDINEKMEKKRKWFGKSETIQTDYIVYMDELSSFIGAKPNIPWLFLTDPKLAMEVYFGPCSPYQFRLVGPGQWPGARNAILTQWDRSLKPMQTRVVGRLQKPCFFFHWLKLFAIPILLIAVFLVLT
B4: ADA (Homo sapiens, UniProt P00813); chain MAQTPAFDKPKVELHVHLDGSIKPETILYYGRRRGIALPANTAEGLLNVIGMDKPLTLPDFLAKFDYYMPAIAGCREAIKRIAYEFVEMKAKEGVVYVEVRYSPHLLANSKVEPIPWNQAEGDLTPDEVVALVGQGLQEGERDFGVKARSILCCMRHQPNWSPKVVELCKKYQQQTVVAIDLAGDETIPGSSLLPGHVQAYQEAVKSGIHRTVHAGEVGSAEVVKEAVDILKTERLGHGYHTLEDQALYNRLRQENMHFEICPWSSYLTGAWKPDTEHAVIRLKNDQANYSLNTDDPLIFKSTLDTDYQMTKRDMGFTEEEFKRLNINAAKSSFLPEDEKRELLDLLYKAYGMPPSASAGQNL
B5: FPPS (Aedes aegypti, UniProt Q17F78); chain MLSTLIRAGSLQTMGRQFARSVETPVQMQHARFISKSSEVNSDYMTMRENQTQKVSRDYNSKLQVRLKKVSRTLSTLNNSIPEAASQTIVTKSDAREFMAVFPDLVRDLTEYCKKYDNTLAPKWFVKALQYNVPQGKKNRGLAAVLAYRMLSKSEDLTPENIRRAHYLGWVIEMFQAVFLICDDAMDGSQTRRGQPCWYKLEDVKLSGINDALMIDAAIFYVLKKQFGDEPYYSKLVETFNEIKFITTIGQSLDLRSARMDVTKYTMDLYKSIVCHKTAYYTFYLPVALAMHMTGFTDPEVFRQTKTILLEIGLFYQTQDDFLDCFGDPAVTGKIGTDIEEGKCTWLSVVAMQRASDEQKELMKQCYGSSDPEKVARVKKLYEELGLPTTYAIYEEESYNMIKTHIQQISRGLPHELFFKIMEKIYRRDC
B6: enzyme (Brachypodium distachyon, UniProt I1IPY7); chain MEQGKAALGWAARDASGHLSPYNFSRRVQKDDDVTIKVLFCGICHTDLHIIKNEWGNALYPIVPGHEVVGVVTDVGPGVKNFKAGETVGVGYFLDSCRTCDSCSKGHENYCPTLVLTSNGVDYDGATTQGGFSDVVVVNQDYVVRVPDTLPPDGAAPLLCAGVTVYSPMMQYGLNAPGKHLGVVGLGGLGHMAVKFGKAFGMKVTVISSSLRKREEALDRLGADDFLVSSDAEQMKAAAGAMDGIIDTVSAGHPIVPLLELLRPMGQMVVCGAPSEPLQLPAYAVITGGKRIAGNGVGSVRDCQAMLDFAGEHGITADVEVVKMDYVNTAVERLERNDVRYRFVIDVAGSLQQGGAA
B7: enzyme (Vitis vinifera, UniProt F6H697); chain MAVDPILSSPLGPAASEKDAKALQFIEEMTRNADSVQERVLAEILSRNGETEYLKRFKLEGSTVRETFKSKIPVIKYEDLQPEIQRIANGDRSAILSAHPISEFLTSSGTSAGERKLMPTIQEELDRRQMLYSLLMPVMNLYVPGLDKGKGLYFLFVKSETRTPGGLLARPVLTSYYKSEHFKTRPYDPYNVYTSPNEAILCADSFQSMYTQMLCGIYERKQVLRLGAVFASGLLRAIRFLQLNWHQLTHDIRTGTLSPKITDPSVRNCVAGVLKPDPELADLVAGECSKDNWEGIITRIWPNTKYLDVIVTGAMAQYIPTLDYYSGGLPLACTMYASSECYFGLNLNPMSKPSEVSYTIMPNMAYFEFLPHEHSSIPLSRDSPPRLVDLAHVEVGKEYELVITTYAGLYRYRVGDILRVTGFHNSAPQFHFVRRKNVLLSIDSDKTDEAELQKAVDNASKLLREVNTSVVEYTSFADTKTIPGHYVIYWELLVKDSANSPSDELLGQCCLAMEESLNSVYRQGRVADNSIGPLEIRVVKSGTFEELMDYAISRGASINQYKVPRCVNFTPIMELLDSRVVSSHFSPALPHWTPARRR
B8: Comt (Rattus norvegicus, UniProt P22734); chain MPLAAVSLGLLLLALLLLLRHLGWGLVTIFWFEYVLQPVHNLIMGDTKEQRILRYVQQNAKPGDPQSVLEAIDTYCTQKEWAMNVGDAKGQIMDAVIREYSPSLVLELGAYCGYSAVRMARLLQPGARLLTMEMNPDYAAITQQMLNFAGLQDKVTILNGASQDLIPQLKKKYDVDTLDMVFLDHWKDRYLPDTLLLEKCGLLRKGTVLLADNVIVPGTPDFLAYVRGSSSFECTHYSSYLEYMKVVDGLEKAIYQGPSSPDKS
B9: enzyme R120K (Arabidopsis thaliana, UniProt O82390); chain MNARALLCSSNIHSLYTSNRPPEKTSSSRSLRNLKPSPKSLRVWIYPRNRSSVFRVLVRSSDKSESSNSYYVEGDKVSGNNDVVSDSPSSIVLPWWEEFPKRWVIVLLCFSAFLLCNMDKVNMSIAILPMSAEYGWNPATVGLIQSSFFWGYLLTQIAGGIWADTVGGKRVLGFGVIWWSIATILTPVAAKLGLPYLLVVRAFMGVGEGVAMPAMNNILSKWVPVQERSRSLALVYSGMYLGSVTGLAFSPFLIHQFGWPSVFYSFGSLGTVWLTLWLTKAESSPLEDPTLLPEERKLIADNCASKEPVKSIPWRLILSKPPVWALISCHFCHNWGTFILLTWMPTYYHQVLKFNLMESGLLSVFPWMTMAISANAGGWIADTLVSRGFSVTNVRKIMQTIGFLGPAFFLTQLKHIDSPTMAVLCMACSQGTDAFSQSGLYSNHQDIAPRYSGVLLGLSNTAGVLAGVLGTAATGHILQHGSWDDVFTISVGLYLVGTVIWNLFSTGEKIID
B10: enzyme (Candida albicans, UniProt A0A1D8PHX1); chain MISIIQNGISQLSSVSGLDEANLKILICTLLSFPFGIIFKRLPDHDYTLKNIYNVAVSCFYVFGICDLRFGISTLLISATGSYFITRYVRTKSMPWINFLFLMIHMAYSHFHLQFFKEYDPKSIDITGAQMILVMKLSAFGWNIHDGKQPRSTLNDFNKARAITKHPNVLPYIGYVFFYASLLTGPAFDYADYDKFIHGTLFDDVPQDKRPGKNKRRIPRSGVQAFKKFSLGFFWAFLLLQSDKFVTMEYMFSPEFVQYHGLFYRIIYMWILGFTFRLKYYTIWTIAEGACILCGIGYNGVDPETGEFKWNRVQNIDPWSFETGQNVHACLEAWNQNTNIWLKNYVYLRVAKPGKKPGFKSTIFTFTTSAFWHGTRPGYYLTFVVGALMQTVGKYYRRNFRPIFLEADGKTPKPTKIVYDFVCWVNTQLAFGFFVQPFVILGFTKSLECWATVYYWLLWVIAISFFAFSGPFAKSVSKFFKSLQPSYREQQRKSREDKYKLNNEEASIVEQAVGAKLGQDYDIPALGLPPFDVFTDFDQTEVDHDIQHLRKAWTSFRGRRGSITENDFDGLKDAYNNFTNEINDIFNTKKEEFKKEKLNKQN
Sequence of UniProt Q99518 (whole entry, looked up): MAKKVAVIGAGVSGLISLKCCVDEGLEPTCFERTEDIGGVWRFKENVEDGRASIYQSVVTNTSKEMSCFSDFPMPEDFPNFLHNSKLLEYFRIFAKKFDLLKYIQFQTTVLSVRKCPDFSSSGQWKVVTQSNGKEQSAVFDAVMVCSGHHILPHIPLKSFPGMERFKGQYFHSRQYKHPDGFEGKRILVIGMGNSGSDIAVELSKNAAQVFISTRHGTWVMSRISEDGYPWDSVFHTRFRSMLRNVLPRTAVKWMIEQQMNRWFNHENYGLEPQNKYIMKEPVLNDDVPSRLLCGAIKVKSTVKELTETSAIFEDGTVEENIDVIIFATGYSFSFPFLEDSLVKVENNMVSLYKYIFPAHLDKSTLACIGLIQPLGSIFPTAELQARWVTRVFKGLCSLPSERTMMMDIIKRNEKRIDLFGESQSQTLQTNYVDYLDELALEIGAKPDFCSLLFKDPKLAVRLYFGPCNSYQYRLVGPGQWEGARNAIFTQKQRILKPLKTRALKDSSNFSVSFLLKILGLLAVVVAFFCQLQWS
Sequence of UniProt H6U1I8 (whole entry, looked up): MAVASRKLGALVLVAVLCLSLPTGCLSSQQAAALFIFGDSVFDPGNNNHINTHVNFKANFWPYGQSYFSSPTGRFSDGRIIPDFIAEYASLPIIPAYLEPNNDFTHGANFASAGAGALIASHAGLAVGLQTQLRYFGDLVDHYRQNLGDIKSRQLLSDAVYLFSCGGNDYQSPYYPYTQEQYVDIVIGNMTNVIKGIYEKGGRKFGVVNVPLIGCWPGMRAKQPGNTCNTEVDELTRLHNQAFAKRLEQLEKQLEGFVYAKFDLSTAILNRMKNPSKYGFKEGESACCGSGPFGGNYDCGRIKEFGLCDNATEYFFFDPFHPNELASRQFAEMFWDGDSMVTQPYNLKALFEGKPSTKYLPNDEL
Sequence of UniProt O60656 (whole entry, looked up): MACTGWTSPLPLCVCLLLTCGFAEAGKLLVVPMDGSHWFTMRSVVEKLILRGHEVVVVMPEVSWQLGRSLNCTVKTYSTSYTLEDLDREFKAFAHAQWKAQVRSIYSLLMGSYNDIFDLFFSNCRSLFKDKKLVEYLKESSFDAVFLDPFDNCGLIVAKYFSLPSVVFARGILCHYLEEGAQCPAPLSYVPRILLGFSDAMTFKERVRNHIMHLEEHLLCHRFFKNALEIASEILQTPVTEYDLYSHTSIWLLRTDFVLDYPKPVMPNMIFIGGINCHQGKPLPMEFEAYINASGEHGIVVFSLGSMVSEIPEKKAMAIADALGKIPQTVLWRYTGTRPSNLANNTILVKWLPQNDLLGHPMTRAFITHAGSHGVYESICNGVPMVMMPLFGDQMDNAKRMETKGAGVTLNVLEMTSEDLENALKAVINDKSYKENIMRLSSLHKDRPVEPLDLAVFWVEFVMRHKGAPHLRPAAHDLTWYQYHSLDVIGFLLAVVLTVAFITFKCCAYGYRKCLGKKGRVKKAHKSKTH

The Vmax of `Gcs (Leishmania donovani, UniProt Q67BG3)` is reported as 108 µM/min/mg (N[C@@H](CCC(=O)O)C(=O)O; apparent, added: ATP, L-cysteine, Mg2+).
With `FMO2 (Homo sapiens, UniProt Q99518)` the Vmax was 6.5e-06 µmol/min/mg (CN1CCC[C@H]1c1cccnc1; HEK293 microsomes; 37 °C, not purified, added: NADPH regenerating system).
`B1 (UGT3A2 A344T)` gave a Vmax of 0.000836 µmol/min/mg (O=c1ccn([C@@H]2O[C@H](CO[P@@](=O)(O)O[P@@](=O)(O)O[C@H]3O[C@H](CO)[C@@H](O)[C@H](O)[C@H]3O)[C@@H](O)[C@H]2O)c(=O)[nH]1; pH 7.4, 37 °C, not purified, added: 1-OH-pyrene 16 µM, MgCl2 10 mM, alamethicin).
`UGT1A9 (Homo sapiens, UniProt O60656)` has a Vmax of 0.0033 µmol/min/mg (COc1cc(OC)c2c(=O)c(O)c(-c3ccccc3)oc2c1; pH 7.4, 37 °C).
`B2 (enzyme S146C)` gave a Vmax of 0.179 µmol/min/mg (Cc1nc2c(=O)[nH]c(=O)nc-2n(C[C@H](O)[C@H](O)[C@H](O)CO)c1C; pH 7.2, 37 °C, apparent).
For `B3 (FMO3 E308G)`, the Vmax was 1.3e-05 µmol/min/mg (CN1CCC[C@H]1c1cccnc1; HEK293 microsomes; 37 °C, not purified, added: NADPH regenerating system).
The Vmax of `B4 (ADA)` is reported as 0.622 µmol/min/mg (Nc1ncnc2c1ncn2[C@@H]1O[C@H](CO)[C@@H](O)[C@H]1O; HEK293, cell homogenate; pH 5.8, 37 °C, not purified).
`enzyme (Tanacetum cinerariifolium, UniProt H6U1I8)` has a Vmax of 0.1 µmol/min/mg (CC/C=C\CC1=C(C)[C@@H](O)CC1=O; pH 7.5, 25 °C).
`CYP2C19 (Homo sapiens, UniProt P33261)` has a Vmax of 0.000143 µmol/min/mg (COc1cc2c(cc1CC=C(C)C)C(=O)C[C@@H](c1ccc(O)cc1)O2; pH 7.4, 37 °C).
`B5 (FPPS)` gave a Vmax of 71.8 µmol/min/mg (CC(C)=CCC/C(C)=C/COP(=O)(O)OP(=O)(O)O; pH 7.5, 37 °C, added: IPP 100 µM, Mg2+ 5 mM).
`B6 (enzyme)` has a Vmax of 6.89 µmol/min/mg (NC(=O)C1=CN([C@@H]2O[C@H](COP(=O)(O)OP(=O)(O)OC[C@H]3O[C@@H](n4cnc5c(N)ncnc54)[C@H](OP(=O)(O)O)[C@@H]3O)[C@@H](O)[C@H]2O)C=CC1; pH 5.35, 23 °C, cofactor varied).
For `B7 (enzyme)`, the Vmax was 0.207 µmol/min/mg (O=C(O)Cc1c[nH]c2ccccc12; pH 8.6, 25 °C).
With `HCT (Coleus scutellarioides, UniProt E8ZAP2)` the Vmax was 38.3 µmol/min/mg (O=C(O)C1=C[C@@H](O)[C@@H](O)[C@H](O)C1; pH 8, pseudo-first-order, added: p-coumaroyl CoA).
`B8 (Comt)` gave a Vmax of 0.00084 µmol/min/mg (O=c1oc2c(O)c(O)ccc2cc1-c1nc2ccccc2s1; rat liver S9; pH 7.4, 37 °C).
`B9 (enzyme R120K)` has a Vmax of 0.00425 µmol/min/mg (O=P(O)(O)O; pH 6.5, 25 °C, apparent, not purified).
`B10 (enzyme)` gave a Vmax of 0.0074 µmol/min/mg (CCCCC/C=C\C/C=C\CCCCCCCC(=O)SCCNC(=O)CCNC(=O)[C@H](O)C(C)(C)COP(=O)(O)OP(=O)(O)OC[C@H]1O[C@@H](n2cnc3c(N)ncnc32)[C@H](O)[C@@H]1OP(=O)(O)O; pH 7.4, 37 °C, apparent, not purified).
